Measurements of several laboratories.
Every numbered part comes from another study and shows a few of its results, in no order. Substitutions count along the parent as printed.

Block 1
Target: UBE2G2 UBC core domain (UniProt P60604)
Method: yeast two-hybrid
Medium: yeast
Notes: mostly zero background
Relative to: not given
Direction: higher = stronger interaction
B1: RNF208 RING domain (UniProt Q9H0X6); chain SSAAAGEPLECPTCGHSYNVTQRRPRVLSCLHSVCEQCLQILYESCPKYKFISCPTCRRETVLFTDYG
B2: TRIM4 RING domain (UniProt Q9C037); chain EAEDIQEELTCPICLDYFQDPVSIECGHNFCRGCLHRNWAPGGGPFPCPECRHPSAPAALRP
B3: RNF111 RING domain (UniProt Q6ZNA4); chain EGTEEDTEEKCTICLSILEEGEDVRRLPCMHLFHQVCVDQWLITNKKCPICRVDIEAQLPSE
B4: TRAF5 RING domain (UniProt O00463); chain FVERLEERYKCAFCHSVLHNPHQTGCGHRFCQHCILSLRELNTVPICPVDKEVIKSQEVFK
B5: DTX4 RING domain (UniProt Q9Y2E6); chain QKVRHPPDEDCTICMERLTAPSGYKGPQPTVKPDLVGKLSRCGHVYHIYCLVAMYNNGNKDGSLQCPTCKTIYGVKTGTQ
Residues (chain): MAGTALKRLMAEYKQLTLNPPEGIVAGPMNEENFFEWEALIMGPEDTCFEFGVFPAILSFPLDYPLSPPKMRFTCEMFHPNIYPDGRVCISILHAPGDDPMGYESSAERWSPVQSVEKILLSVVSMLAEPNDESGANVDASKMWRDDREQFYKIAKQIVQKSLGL
Under “lacZ reporter activity”, `DHGAVGQEMCCPICCSEYVKGEVATELPCHHYFHKPCVSIWLQKSGTCPVCRCMFPPPL (PJA1 RING domain (UniProt Q8NG27))` is recorded as 0.
`FQGDVDEDLICPICSGVLEEPVQAPHCEHAFCNACITQWFSQQQTCPVDRSVVTVAHLRP (RNF41 RING domain (UniProt Q9H4P4))`: “lacZ reporter activity” 1050.
`B1 (RNF208 RING domain)` — result for “lacZ reporter activity”: 0.
Under “lacZ reporter activity”, `B2 (TRIM4 RING domain)` is recorded as 0.
For `B3 (RNF111 RING domain)`, “lacZ reporter activity” read 10200.
Under “lacZ reporter activity”, `B4 (TRAF5 RING domain)` is recorded as 0.
For `B5 (DTX4 RING domain)`, “lacZ reporter activity” read 0.

Block 2
Target: RNA binding protein fox-1 homolog 2, RRM domain, GST-SBP tag (RBFOX2, Homo sapiens, UniProt O43251-10, residues 100-194)
Method: RNA Bind-n-Seq
Molecule type: RNA
Medium: in vitro
Tested at: 365 nM
Notes: natural RNA segment, single round, ends assumed
Relative to: no-protein control
Direction: higher = stronger binding
All sequences stand within: GGGAGUUCUACAGUCCGACGAUC … UGGAAUUCUCGGGUGCCAA
Construct (chain): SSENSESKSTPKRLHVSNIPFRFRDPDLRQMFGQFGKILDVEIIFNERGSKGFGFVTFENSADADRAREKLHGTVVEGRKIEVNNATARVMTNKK
For `UCGAAUAGAGAAGGGGAAACUCCUUGAAUUUCUAGGUUUAAAAAGGAACUUUUAAAUUCCUUAAUGUUAAUAUUAAUGUUCAUGUUAAUGUCCUAAGCUGGCCAUUAACA`, “RBNS enrichment (R)” read 0.884.
For `GUCCCCUGUUGUCGGUGAUUUGUUUGUCUUUCUGAUAGGUUGAAAAUUGUGUAAUAAACUUGAUGACGAUGUCAAUCUUUUAUACUGCAUUGUAUUUUUUUCCUUUUGUA`, “RBNS enrichment (R)” read 0.596.
`UGAAGUUGUCAUGUCAUCCUUUUCUGUCUUCCACUCUCCUGGUCUAGAACCUUGUUGAUCAUGCUCAUAUUCUUCUUGAGGUUUGUUUUUGUUGUUGCGUAGUCUUUGUU` — result for “RBNS enrichment (R)”: 4.77.
For `GACUGAGUUCCACCUCCUGAAGCCAGACUCCACCUCUUGUGCUUUUUUGCUUGGGAAAAAGGAGUUUUUCUUUAGAAACAGUGCCAAGAAUGAUAUAAACUACUUUUAAC`, “RBNS enrichment (R)” read 0.417.
Under “RBNS enrichment (R)”, `AACCUUUCGCCUAUGGCUUACAGUUCGACAUUUAAUUUAUUAGCGCUGCUCUGCACCCCUCCUGCCGGGAGGCUCUGUGUGGUUAUUGCCAGUUCUUUGUUUACUUUUCA` is recorded as 0.301.
For `CACUGCAGCCGGGAGCCUCUGCUGUCCUUCCCAGCCGCCUCUGCUCCUCGGGCUCAUCACCGGUUCUGUGCCUGUGCUCUGUUGUGUUGGAGGGAAGGACUGGCGGUUCU`, “RBNS enrichment (R)” read 3.22.
`UAGAGAGUUUGUGGGGAUCUCUUCUGAGUACCCCAGGACUUGGGAAAUAAUGCAAGAGUAUCCCUUUCAGUACAUAGGUAAGCUUGGCUAUGUUCAAUAUGGCAGAGCCA`: “RBNS enrichment (R)” 1.35.
Under “RBNS enrichment (R)”, `AAAAAAAAAAAAGAAAGAAAGAAAGAAAGAGAGAAAUUGAGGUGACCCUCCCUCAGCCUCCAGAGGACUGAGAUAUGUGUGUGCACCUCCCAUCUCGCUCAGCACAGGGU` is recorded as 0.522.

Block 3
Target: CCNE1, cyclin fold, Cln2 fusion (human)
Method: yeast growth competition, sequencing
Medium: yeast
Notes: weak parent motif
Relative to: not given
Direction: higher = stronger binding
Starting sequence: SGO1 docking peptide (human); PLAKRALKYTDEK
For `Y9A`, “normalised enrichment score” read -0.0242.
`R5A` — result for “normalised enrichment score”: -0.113.
`L7A` — result for “normalised enrichment score”: 0.373.
`K4A`: “normalised enrichment score” 0.0927.
For `L2A`, “normalised enrichment score” read 0.377.

Block 4
Target: MAFG, bZIP domain (human)
Method: DHFR protein complementation
Medium: yeast
Notes: single substitutions, most at no-binding floor
Relative to: wild-type JUN-FOS pair
Direction: higher = stronger binding
Starting sequence: JUN, bZIP domain (human); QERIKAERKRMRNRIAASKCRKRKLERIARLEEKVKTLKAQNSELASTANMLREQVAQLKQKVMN; partner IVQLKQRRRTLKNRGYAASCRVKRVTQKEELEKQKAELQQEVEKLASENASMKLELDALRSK
For `E44H`, the binding fitness was -1.56 natural log.
`E33C` has a binding fitness of -1.52 natural log.
`A57Y` gave a binding fitness of -1.17 natural log.
`K39Y` has a binding fitness of -1.57 natural log.
The binding fitness of `K34P` is reported as -1.52 natural log.
`R30C` has a binding fitness of -1.51 natural log.
For `A29G`, the binding fitness was -1.4 natural log.
With `T37W` the binding fitness was -1.2 natural log.
With `S43W` the binding fitness was -1.47 natural log.
With `V56K` the binding fitness was -1.4 natural log.
For `V56L`, the binding fitness was -1.43 natural log.
With `E32F` the binding fitness was -1.42 natural log.
With `E44N` the binding fitness was -1.63 natural log.
`R30Y` has a binding fitness of -1.6 natural log.
The binding fitness of `K34S` is reported as -1.45 natural log.
`T48G` gave a binding fitness of -1.48 natural log.
With `L59G` the binding fitness was -1.41 natural log.
`A40P` gave a binding fitness of -1.49 natural log.
With `E32N` the binding fitness was -1.55 natural log.
For `R30L`, the binding fitness was -1.47 natural log.
With `L38A` the binding fitness was -1.37 natural log.
`E44V` has a binding fitness of -1.45 natural log.
The binding fitness of `A49P` is reported as -1.42 natural log.
With `K36H` the binding fitness was -1.33 natural log.
With `S43N` the binding fitness was -1.48 natural log.

Block 5
Target: RING finger protein unkempt homolog, zinc fingers 1-6, GST-SBP tag (UNK, Homo sapiens, UniProt Q9C0B0, residues 30-357)
Sequence of UniProt Q9C0B0 (30-357, looked up): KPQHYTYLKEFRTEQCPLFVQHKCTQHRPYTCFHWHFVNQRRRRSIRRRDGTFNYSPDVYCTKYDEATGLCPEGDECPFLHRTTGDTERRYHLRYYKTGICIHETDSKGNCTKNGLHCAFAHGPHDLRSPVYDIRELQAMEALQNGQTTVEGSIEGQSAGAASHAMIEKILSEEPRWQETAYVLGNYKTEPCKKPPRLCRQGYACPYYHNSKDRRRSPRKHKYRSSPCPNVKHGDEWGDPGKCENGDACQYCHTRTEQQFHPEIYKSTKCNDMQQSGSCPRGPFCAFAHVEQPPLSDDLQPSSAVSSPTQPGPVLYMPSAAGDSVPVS
Method: RNA Bind-n-Seq
Molecule type: RNA
Medium: in vitro
Tested at: not given
Notes: RNA with constant flanks, human and mouse sites, ends assumed
Relative to: input RNA pool
Direction: higher = stronger binding
All sequences stand within: GGGAGUUCUACAGUCCGACGAUC … CAACAGAGGAUUGAGCAUCA
For `ACUCCCUGGUUCUGGCCCAAAGACAAGACCAAAGUCUGGUCUAAGCCCAAAGAAGAGCCCAAUAGUAGGUCCUGGUUUAGGUCUAAGAAAGAAGUCCGUGUUGAAUCCACUUCUGGGUCU`, the bound/input enrichment was 0.582 ratio.
For `CUCAGAAUAAAGUCAGAGCUUGGAUUAAAUUUCUAUCAGCAAGUGAAGCUGGUCAAUUUCAUUAGAAGGCAAGUUCACCAAUGCAAGUGCUACAGUUGCCAUGUAAAGUUCAAAUCCAAA`, the bound/input enrichment was 0.335 ratio.
`UUACCUUUAUUUUUAAAAAAUGGGCAUUUUGUAACAUUCCUUCAGGAAGAAUGGAAGUGUGUAUGUUUUUCUGCAUGGUGUGAGCAUUGUGAGUCUUACAAGAUUACUGCAGUUUUCAGA` gave a bound/input enrichment of 0.307 ratio.
For `CGCGGAGGCCGGCCGGGGGACGGCGUCCUGCCCCGGGAGCAGCUGAUACUUUUAGGGACACUAGUAGACCUAUUGGGAGAUUCGGAACAAGAAUGUAGGAGUGGAAGCCUGUAUGUGAGG`, the bound/input enrichment was 1.42 ratio.
`GGUGGCUCUUCUCUGCUCAUCGAGGCAUUAUCUAACAGUAGCCACAAGUGCCAAGCAGACAUUAGACAUAUCCUGAAUAAGAAUGGAGGAGUGAUGGCUGUAGGAGCUCGUCACUCUUUU` gave a bound/input enrichment of 0.598 ratio.
The bound/input enrichment of `ACAGAUAAAGACAAUGGAGGGAUGCUUGUAUGGUCUCCAUAUCACAGUAUCCCAGAUGCCAAAUUGGAUGAAUACAUUGCAAUUGCAAAGGAAAAGCAUGGCUACAAUGUGGAACAGGCA` is reported as 0.179 ratio.
`UAAAUUGUUGGAGUUCUUUUAAGAAGAAUAUAAAUUGAUUAUUUUUUUUAUUUAAAGGGAUAGUUGAUUCCUGGGGUGUUUUGAAAUUAAGUUGGAAUUAAGUUGCUUAAGCAUAUUUAU` gave a bound/input enrichment of 0.452 ratio.
For `CUUUAAUGUCUUUUUCCUGCUUAUAGGGAAAGUAUAAGUUUGGUUAAAAUGUCAUGUUUGUUGUCUUUCCAAAAACCUUUAUAAUUACAGAGGGCCUUCUUCAAUACUGCUGGUGUUGGA`, the bound/input enrichment was 0.295 ratio.

Block 6
Target: ABI1, truncated, D143A, DHFR fusion (Arabidopsis thaliana, UniProt P49597)
Method: DHFR PCA, dose-response
Medium: yeast
Notes: Hill fit, not affinity
Together with: (+)-ABA, dose series
Direction: lower = more sensitive
Starting sequence: PYL1, truncated, DHFR fusion (Arabidopsis thaliana, UniProt Q8VZS8); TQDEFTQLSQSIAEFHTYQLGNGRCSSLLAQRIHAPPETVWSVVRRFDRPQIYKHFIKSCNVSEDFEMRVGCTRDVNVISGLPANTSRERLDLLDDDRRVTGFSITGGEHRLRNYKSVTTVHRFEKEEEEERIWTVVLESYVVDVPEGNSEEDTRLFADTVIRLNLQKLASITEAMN
With `N85L` the ABA EC50 was 9.62 µM.
`Q2Y` has an ABA EC50 of 36.9 µM.
`V143G` gave an ABA EC50 of 1180 µM.
`W41G` gave an ABA EC50 of 468 µM.
For `R99Y`, the ABA EC50 was 2.66 µM.
For `R99F`, the ABA EC50 was 3.14 µM.
The ABA EC50 of `H122K` is reported as 2070 µM.
With `K126G` the ABA EC50 was 2.13 µM.
